Measurements gathered from unrelated publications.
Parts stem from different laboratories: compare values within a part only.

Block 1 — technique: RNA Bind-n-Seq; form: RNA; medium: in vitro; tested at: not given; relative to: input RNA pool; reading: higher = stronger binding
Target: RING finger protein unkempt homolog, zinc fingers 1-6, GST-SBP tag (UNK, Homo sapiens, UniProt Q9C0B0, residues 30-357)
Sequence of UniProt Q9C0B0 (30-357, looked up): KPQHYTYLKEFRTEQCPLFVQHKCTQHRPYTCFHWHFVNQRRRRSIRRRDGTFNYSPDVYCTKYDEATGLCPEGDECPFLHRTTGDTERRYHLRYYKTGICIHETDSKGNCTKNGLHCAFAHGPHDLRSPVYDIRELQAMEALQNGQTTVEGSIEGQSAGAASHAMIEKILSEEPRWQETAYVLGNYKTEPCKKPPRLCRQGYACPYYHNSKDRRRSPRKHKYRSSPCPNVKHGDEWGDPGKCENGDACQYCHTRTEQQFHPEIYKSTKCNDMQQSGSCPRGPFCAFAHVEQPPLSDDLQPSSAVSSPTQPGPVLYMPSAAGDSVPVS
Setting: RNA with constant flanks, human-mouse chimeric sites, ends assumed
For `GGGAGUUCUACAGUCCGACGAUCUUCAAAGAAAAGGGCAGUUCAUAAAUAUCAUAAGUAAAACUGCAUCCGGGAAAUUCUGUUCUUUUGUUUAAUUUUCCCCCAAAUGAAGCCAAAGUGUGUGUUGAAGAACUGAGAAAAAAUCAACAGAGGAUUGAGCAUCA`, the bound/input enrichment was 0.364 ratio.
With `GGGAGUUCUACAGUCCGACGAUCUAAGUUAAGCUUUUAAUCUUUGUAAAUUCUUAACAUUUUUAUAUUGCCAUGUUUAUUUUGUUUGGGUAAUUUGGUUCAUUAAGUACAUAGCUAAGGUAAUGAACAUCUUUUUCAGUAAUUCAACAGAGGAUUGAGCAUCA` the bound/input enrichment was 0.643 ratio.
`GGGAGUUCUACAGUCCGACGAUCUAACCACAUCAAGAUGGUUGGAAAGCUGAAGCAGAACUUACUCUUGGCGUGUCUGGUGAUUAGUUCUGUGACUGUGUUUUACCUGGGCCAGCAUGCCAUGGAGUGCCAUCACCGAAUAGACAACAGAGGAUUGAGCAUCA` has a bound/input enrichment of 0.418 ratio.
For `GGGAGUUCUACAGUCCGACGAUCCUUUUUAAGAAGAUAUGUGAUGGGAUCUUUUAUACCCCUCAGUACUUAAACCCUUCAGUGAUUAGCCUUUUGAAACAUAUGCUGCAGGUGGAUCCCAUGAAGAGGGCCACAAUCAAAGAUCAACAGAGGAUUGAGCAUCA`, the bound/input enrichment was 0.416 ratio.
The bound/input enrichment of `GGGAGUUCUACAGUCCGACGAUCCCAAUUGUGGAGCAGUACUUGAAGACAAAGAAAAAUUCUAGUCAUUUAAUCAUCAAGUACAUUAGCUGCCGCCUGCUGACACUCAUCAUUAUACUGUUGGCAUGUAUCUACCUGGGCUAUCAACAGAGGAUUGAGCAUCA` is reported as 0.526 ratio.
`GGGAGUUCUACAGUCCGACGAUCCUGUGCGGGUGACUGUCCUGGAGUGGCUGGAGUUCCCGCCGGAGCGCGGCCAGACUAAUUAUAGAAAAUGCCAAGUAGGAAGUUUGUUGAGGGUGAAGUGGUCAGAGGCCGAUGGCCUGGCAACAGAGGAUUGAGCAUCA` has a bound/input enrichment of 1.64 ratio.
With `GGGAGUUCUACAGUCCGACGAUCAAAGUGAUGACUAUGUUUGUACAGCGACAGGUAUUUUCGGAGAGCAAAGAUGAGAUUGCGUUAGUCCUCUAUGGCACAGAUGGCACUGAUAAUGCCCUUGCUGGCAAGGAUCAGUAUCAGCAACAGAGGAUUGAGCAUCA` the bound/input enrichment was 0.187 ratio.
`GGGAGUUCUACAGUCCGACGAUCAUGGAGAAGGAUUCUCUGCCCCGCUUUGUGCGCUCUGAAUUUUAUAAGGAGCUAAUCAAGUAGUAAUUUAGCCAGGCUUCCAAAAGUUGCCCUGUGAGUUGAGUUACAUCCUUUGUAGCACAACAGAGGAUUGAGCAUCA` gave a bound/input enrichment of 0.907 ratio.
The bound/input enrichment of `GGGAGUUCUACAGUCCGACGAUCCUGUGUGGCUUACUAAAAUGGCUUGUAAAGAAGUUUUUCCAAGCUGUAACCCAUGCUUCCCUUAGAGUUGCUGCAAAAUGUUCUUCCUGAUAUUGAUUUUAUUUGUUAACUGAAGGUCUCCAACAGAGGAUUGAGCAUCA` is reported as 0.786 ratio.
`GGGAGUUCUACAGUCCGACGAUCUAAGUCCUGUGCCAGCACUUCGCUCAUAAAGUUUUAAAUUCAAGAAAAAUUGUGUUUGUUUCCUGAUUAUUGUAUCCAAUACUUUGCCUAGUAUGUAACUCACUCUUACUGAUAAUAAAACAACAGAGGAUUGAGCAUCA` gave a bound/input enrichment of 1.36 ratio.
With `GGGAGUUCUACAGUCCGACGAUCUAACCACAUCAAGAUGGUUGGGAAGCUGAAGCAGAACUUACUAUUGGCGUGUCUGGUGAUUAGUUCUGUGACCGUGUUUUACCUGGGCCAGCAUGCCAUGGAGUGCCAUCACCGAAUAGACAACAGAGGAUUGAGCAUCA` the bound/input enrichment was 0.239 ratio.

Block 2 — technique: protein binding microarray; form: double-stranded DNA, one strand shown; medium: in vitro; tested at: not given; relative to: not given; reading: higher = stronger binding
Target: Histone acetyltransferase KAT6A, both winged helices, GST fusion (KAT6A, Homo sapiens, UniProt Q92794, residues 1-181)
Setting: 8-mer, flanks averaged, mean of 2 arrays, mostly near background
Target sequence (chain): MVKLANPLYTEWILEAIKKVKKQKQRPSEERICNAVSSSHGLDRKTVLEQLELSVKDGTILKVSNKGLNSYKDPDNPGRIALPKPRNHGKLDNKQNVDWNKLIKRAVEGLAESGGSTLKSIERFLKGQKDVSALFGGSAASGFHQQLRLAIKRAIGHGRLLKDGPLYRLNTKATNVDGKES
For `GAAGCGGA`, the E-score was 0.151.
The E-score of `CGTAGCTA` is reported as -0.143.
`TCTCAAGA` gave an E-score of -0.159.
For `AAATATAG`, the E-score was 0.107.
For `ACCTACCT`, the E-score was -0.128.
With `CGCAGCTC` the E-score was 0.103.
The E-score of `CCCCTGTA` is reported as -0.0549.
`CTCAATCA` has an E-score of -0.0706.
`ACGGCCCA` has an E-score of 0.133.
With `ACTGGCGG` the E-score was 0.131.
With `ATATACAC` the E-score was -0.0144.
For `CTTAGCCC`, the E-score was -0.039.
`TCGTACAA` has an E-score of 0.0526.
`GGCGGCAA` has an E-score of 0.255.
With `GGCCCGAA` the E-score was 0.164.
For `AACCGTCC`, the E-score was 0.0345.
`CTCTAGCC` has an E-score of -0.0233.
`GAGATGAA` gave an E-score of -0.0329.
`TGTTTTAA` gave an E-score of -0.0108.
The E-score of `TTTCCAAA` is reported as -0.111.

Block 3 — technique: protein-binding microarray; form: double-stranded DNA, one strand shown; medium: in vitro; tested at: 250 nM; setting: 60-bp whole probe; together with: salmon DNA 0.4 mg/ml; relative to: random background probes; reading: higher = stronger binding; shared flanks, not repeated: GCCTAGCAC … GTCTTGATTCGCTTGACGCTGCTG
Target: Interferon regulatory factor 7, full length, phosphomimetic (IRF7, Homo sapiens, UniProt Q92985, residues 1-503, S101K/S471D/S472D/S475D/S476D/S477D/S483D/S484D/S487D)
Sequence of UniProt Q92985 (whole entry, unmodified, looked up): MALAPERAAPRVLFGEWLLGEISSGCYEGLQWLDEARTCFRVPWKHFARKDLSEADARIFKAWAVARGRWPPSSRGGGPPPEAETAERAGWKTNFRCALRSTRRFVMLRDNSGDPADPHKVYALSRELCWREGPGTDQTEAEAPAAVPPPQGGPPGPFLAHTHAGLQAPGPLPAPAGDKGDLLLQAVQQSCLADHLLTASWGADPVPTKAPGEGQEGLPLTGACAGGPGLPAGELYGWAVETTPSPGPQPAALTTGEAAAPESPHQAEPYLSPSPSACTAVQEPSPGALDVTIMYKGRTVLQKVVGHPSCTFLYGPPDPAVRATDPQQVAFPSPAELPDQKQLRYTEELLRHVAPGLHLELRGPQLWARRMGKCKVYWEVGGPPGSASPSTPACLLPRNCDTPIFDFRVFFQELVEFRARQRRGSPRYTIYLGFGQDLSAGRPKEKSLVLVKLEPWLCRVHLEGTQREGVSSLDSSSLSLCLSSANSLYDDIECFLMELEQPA
For `TTAGGTATCGGACTCGGTTAGTGCTAG`, the log fluorescence was 1.37 z-score.
`GACGGTATCCTTATCCTGATGTGCTAG` has a log fluorescence of -0.0237 z-score.
`GCCGATCTCAGACTGGAGACGTGCTAG` has a log fluorescence of -0.257 z-score.
`GACGGTTTCGACTATCGGGATGTGCTA` has a log fluorescence of 5.42 z-score.
The log fluorescence of `TTAGAAATGAGTCTCGATTAGTGCTAG` is reported as 1.4 z-score.
With `TTAGGACTGGGGACTGGGCTAGTGCTA` the log fluorescence was -0.748 z-score.
For `TTTGGTATCCTTATCCTTTAGTGCTAG`, the log fluorescence was 0.521 z-score.
The log fluorescence of `ATAGGTTTCGGTTTCGGTTAGTGCTAG` is reported as 15.5 z-score.
The log fluorescence of `GACGATTTCAGATCCGAGACGTGCTAG` is reported as 0.305 z-score.
The log fluorescence of `GACGGTTTCCTTATCCTGAAGTGCTAG` is reported as 3.46 z-score.
The log fluorescence of `TTTTGTTGTTTTTTGGTTTCGTGCTAG` is reported as 1.97 z-score.
`CACCTTCTTCATCAAGGACAGTGCTAG` gave a log fluorescence of 0.828 z-score.
`TTAGGACTGCGTATCCTTTAGTGCTAG` has a log fluorescence of -0.0103 z-score.
With `ATAACACTCTTCTTTTGCTAAGTGCTA` the log fluorescence was 0.595 z-score.
For `TTAGGTTTCGGTTCCCGTTAGTGCTAG`, the log fluorescence was 13.3 z-score.
The log fluorescence of `TTGAGTTTTCCTTCATGTGCGTGCTAG` is reported as 1.17 z-score.
With `AACGGTTTCCTTTCCCTGACGTGCTAG` the log fluorescence was 5.08 z-score.
With `TTTACTAGGAGTTTTCAGTCCGTGCTA` the log fluorescence was 0.0889 z-score.
For `TTACATATCGGGTATCGATTAGTGCTA`, the log fluorescence was 1.03 z-score.
The log fluorescence of `TCAATTTTCCCTCCCTAACTGTGCTAG` is reported as 1.27 z-score.
`TCATGTCTGATTATTTAACTGTGCTAG` gave a log fluorescence of -0.0102 z-score.
`TCAATCATTGTTTTCAGTTTGTGCTAG` gave a log fluorescence of 1.57 z-score.
With `TCAATTATCCTTGTCCCACTGTGCTAG` the log fluorescence was 0.778 z-score.

Block 4 — technique: protein-binding microarray; form: double-stranded DNA, one strand shown; medium: in vitro; tested at: 0.8 µM; setting: whole 60-bp probe, no competitor; reading: higher = stronger binding
Target: Centromere-binding protein 1, full length, N-terminal tag (CBF1, Saccharomyces cerevisiae, UniProt P17106, residues 1-351)
Sequence of UniProt P17106 (whole entry, looked up): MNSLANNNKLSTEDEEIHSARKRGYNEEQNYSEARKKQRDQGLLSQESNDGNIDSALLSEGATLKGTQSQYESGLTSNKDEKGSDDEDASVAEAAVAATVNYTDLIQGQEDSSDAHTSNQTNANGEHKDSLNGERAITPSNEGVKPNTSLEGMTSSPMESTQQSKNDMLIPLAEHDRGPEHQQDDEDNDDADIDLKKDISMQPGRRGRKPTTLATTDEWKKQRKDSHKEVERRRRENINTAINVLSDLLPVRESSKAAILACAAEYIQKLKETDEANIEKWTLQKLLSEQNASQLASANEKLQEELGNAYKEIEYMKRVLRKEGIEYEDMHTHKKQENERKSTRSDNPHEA
For `CTAGGATCCACTTGTCATGCGGTGAGAATCGTATTCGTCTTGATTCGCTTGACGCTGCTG`, the fluorescence intensity was 617 a.u.
The fluorescence intensity of `GAAAAGTTAGCTCATTCTGACGTCAACATCGAATAGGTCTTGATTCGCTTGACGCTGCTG` is reported as 516 a.u.
With `GAACATATATATGATCACATATATATTTCTGTGTAGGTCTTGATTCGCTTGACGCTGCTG` the fluorescence intensity was 584 a.u.
With `CCTAACTACTATATGCATGCGTAATAGCTTCGTACAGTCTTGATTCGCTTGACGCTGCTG` the fluorescence intensity was 540 a.u.
`TGTACGAAGCTATATCACGTGCGTATAGTAGTTAGGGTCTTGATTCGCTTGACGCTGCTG` gave a fluorescence intensity of 14200 a.u.
`GAAGTTGAATAAGGCCATGTGACACGGGTTTCTTAGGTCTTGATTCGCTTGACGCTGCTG` gave a fluorescence intensity of 3520 a.u.
`CTAGTTGAAATTGCTCTCGTGAGGTACATACTTTTCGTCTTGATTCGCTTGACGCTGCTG` has a fluorescence intensity of 535 a.u.
`CTAAACATTTTCTAATAGGTGACATTACAAAATTTCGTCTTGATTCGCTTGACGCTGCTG` has a fluorescence intensity of 543 a.u.
For `CTATTGAGTCCACTGCATGTGGAAAACAGAGTTTTCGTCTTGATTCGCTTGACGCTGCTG`, the fluorescence intensity was 558 a.u.
`CTAGGGCGCTGGGGACTCGTGCCCATCCGGGACTTCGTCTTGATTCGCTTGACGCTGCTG` has a fluorescence intensity of 569 a.u.
The fluorescence intensity of `CTATGCTTACCCTCCCACGTGCTAGATTTTTCGTTCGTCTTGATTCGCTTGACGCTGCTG` is reported as 6090 a.u.
`GAACTGACCATAGTACATGTGCAAGTTATTCAATAGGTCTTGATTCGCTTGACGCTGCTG` has a fluorescence intensity of 838 a.u.
For `CTATTCTTGTTGAGAAACGTGGTTGTATCCTTTTTCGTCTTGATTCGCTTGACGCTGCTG`, the fluorescence intensity was 600 a.u.
`GAAATTAAACTTGCGTGCATGCACGTACACACGTAGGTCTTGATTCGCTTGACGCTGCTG` gave a fluorescence intensity of 626 a.u.
`GAATCTCTTCTGAGTCACGAAATCAACAGTAATTAGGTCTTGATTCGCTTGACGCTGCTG` has a fluorescence intensity of 644 a.u.
The fluorescence intensity of `CTACACTTTGGGAATCACACCGCGAAACTGGCATTCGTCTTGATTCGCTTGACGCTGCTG` is reported as 581 a.u.
`GAAGTGGTTTTTGGTGGTGTAAGTAAAGGTCGTTAGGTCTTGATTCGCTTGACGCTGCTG` gave a fluorescence intensity of 595 a.u.
`GAAGAAGGAGAGAATCACGCAAAAATCACATTATAGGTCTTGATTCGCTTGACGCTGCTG` gave a fluorescence intensity of 539 a.u.
For `CTACTAAAGAACGTGCATCAGAGAAGAATAACTTTCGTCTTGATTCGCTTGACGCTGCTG`, the fluorescence intensity was 674 a.u.
`CCTAACTACTATAGGCCCGTGGAATAGCTTCGTACAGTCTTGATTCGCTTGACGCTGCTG` has a fluorescence intensity of 512 a.u.
The fluorescence intensity of `GAAATACGGAGGTACCCCGTGTTGAGATCCAACTAGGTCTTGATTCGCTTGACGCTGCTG` is reported as 612 a.u.
`GAATTTCGTATAGTCTGTGTGACCCTATCTGTTTAGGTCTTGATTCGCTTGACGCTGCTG` gave a fluorescence intensity of 531 a.u.
`GAATATTGTTTGGTGAACGTGGCACTGGTGGTATAGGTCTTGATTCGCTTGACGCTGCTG` has a fluorescence intensity of 574 a.u.
For `CCTAACTACTATACTGGTCACGTATAGCTTCGTACAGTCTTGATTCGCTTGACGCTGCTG`, the fluorescence intensity was 1320 a.u.
`GAACAAACCGCAGATTGCGTCACGGTTCTGCGGTAGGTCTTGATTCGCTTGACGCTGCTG` has a fluorescence intensity of 705 a.u.

A few entries again (block 3):
`CACCTTCTTCATCAAGGACAGTGCTAG` gave a log fluorescence of 0.828 z-score.
The log fluorescence of `TTGAGTTTTCCTTCATGTGCGTGCTAG` is reported as 1.17 z-score.
`TCATGTCTGATTATTTAACTGTGCTAG` gave a log fluorescence of -0.0102 z-score.
The log fluorescence of `GACGATTTCAGATCCGAGACGTGCTAG` is reported as 0.305 z-score.
`GCCGATCTCAGACTGGAGACGTGCTAG` has a log fluorescence of -0.257 z-score.
